# Measured values from different studies.
# Protocols differ between the studies behind these lines.
# Medium: plasma
# Route: oral
Compound,system,setting,half-life [h]
C[C@@H]1CCC[C@H](n2cnc(-c3cc(Cl)ccc3-n3cc(Cl)nn3)cc2=O)c2cc(ccn2)-c2c(cnn2C(F)F)NC1=O,human,"4 mg, single dose, fasted, healthy volunteers",10.3
CNC(=O)c1ccccc1Sc1ccc2c(/C=C/c3ccccn3)n[nH]c2c1,human,"5 mg, single dose, fed",4.8
Nc1ccc(-c2nc([C@H]3CCc4cc(-c5cc(Cl)ccc5-n5cnnn5)cc(=O)n43)c(F)[nH]2)c(F)n1,human,"1 mg, single dose, fasted",16.5
O=C(c1nc2n(n1)[C@H](c1ccccc1)C[C@@H]2F)C1CC1,human,"5 mg, single dose, fasted, healthy volunteers",12.1
CS(=O)(=O)n1cc2c(n1)CN([C@H]1CO[C@H](c3cc(F)ccc3F)[C@@H](N)C1)C2,male human,"25 mg, single dose, fasted, healthy volunteers",38.9
CC(=O)N[C@H]1CC[C@H](NC(=O)CN2CCN(c3nncc(-c4ccc(C)cc4)n3)CC2)CC1,male human,"100 mg, single dose, fasted",11.4
CNc1nc(Nc2ccc(-n3cnc(C)n3)c(OC)c2)nc2c1CC[C@H]2c1ccc(F)cc1,human,"30 mg, single dose, healthy volunteers",19
O=C(O)COC[C@H]1CC[C@H](COC(=O)N(c2ccccc2)c2ccc(Cl)cc2)CC1,human,"30 µg, single dose, healthy volunteers",20.5
COc1cccc(-c2ccc(NC(=O)C3=C(C(=O)O)CCC3)c(F)c2)c1,male human,"10 mg, single dose, fed, healthy volunteers",33.7
C=CC(=O)Nc1cc(Nc2ncc(C(=O)OC(C)C)c(-c3cn(C)c4ccccc34)n2)c(OC)cc1N(C)CCN(C)C,human,"160 mg, single dose, fasted, healthy volunteers",19.9
C#C[C@]1(CO)O[C@@H](n2cnc3c(N)nc(F)nc32)C[C@@H]1O,human,"30 mg, single dose, fasted, healthy volunteers",48.6
CCCOc1ccc([C@H]2CNC(=O)N2c2ccc3[nH]cnc3c2)cc1,human,"1200 mg, single dose, fed",2.45
